Published values from different studies.
Numbered parts are unrelated; each lists some results of a single study. Changes are numbered by the printed parent chain.

Block 1
Target: RNA binding protein fox-1 homolog 2, RRM domain, GST-SBP tag (RBFOX2, Homo sapiens, UniProt O43251-10, residues 100-194)
Method: RNA Bind-n-Seq
Form: RNA
Medium: in vitro
Concentration: 365 nM
Notes: natural RNA segment, single round, ends assumed
Reference: no-protein control
Direction: higher = stronger binding
`GGGAGUUCUACAGUCCGACGAUCUUACCCUUCUUGCUAUUGGAAACUCAGCACAUUUGAACUUGGGUUUGAUUCAGUAUUAACAGAUCUUGACUACACUAAUUCUUUAUAUUAUAGAACCAACGGAAAUAUGGUGGAAUUCUCGGGUGCCAA` — result for “RBNS enrichment (R)”: 0.69.
`GGGAGUUCUACAGUCCGACGAUCGGCAGUAUUGCUCCUACCACUGCUGCUGCUGCAAUCUCAGUGAGGGUGUACGCUUGCCCUGGCUUAUGGAUUGGAAUGGGACUAAGGGGCAGCCCCAGCCCUGGGAACCUUGGAAUUCUCGGGUGCCAA`: “RBNS enrichment (R)” 0.649.
`GGGAGUUCUACAGUCCGACGAUCGGAGCUGGAUCUGACCCUGAUUGGGGAGAGCUGAGUGCUGAGCCUUGGGAGCCCCUGCCAGCCACCUGCACCUGUGGACAGUGGGUGGGGGCACUACUCCCCACUCAGAGUGGAAUUCUCGGGUGCCAA`: “RBNS enrichment (R)” 0.734.
For `GGGAGUUCUACAGUCCGACGAUCCUUCUCUGCAGCCAGUCCUCUAACAAAUCUCAAGAACAAAGGUAAGACACUUGGUUUUUGUUUCCAGGACCCUUCAGAAGGUGACAUCAGAUAUUCCCUAAAUUCAGACAUGGAAUUCUCGGGUGCCAA`, “RBNS enrichment (R)” read 0.411.

Block 2
Target: CCND3, cyclin fold, Cln2 fusion (human)
Method: yeast growth competition, sequencing
Medium: yeast
Notes: weak parent motif
Reference: not given
Direction: higher = stronger binding
Parent: PKN2 docking peptide (human); VSAVQKLDFSDTM; partner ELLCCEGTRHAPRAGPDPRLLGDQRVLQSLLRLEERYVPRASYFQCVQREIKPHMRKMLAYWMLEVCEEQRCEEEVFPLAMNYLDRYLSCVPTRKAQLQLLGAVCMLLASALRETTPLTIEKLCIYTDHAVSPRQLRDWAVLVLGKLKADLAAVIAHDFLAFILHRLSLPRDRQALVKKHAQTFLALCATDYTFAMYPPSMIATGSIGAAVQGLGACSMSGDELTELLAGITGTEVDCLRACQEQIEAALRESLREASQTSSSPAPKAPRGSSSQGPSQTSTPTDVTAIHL
Under “normalised enrichment score”, `K6N` is recorded as 0.168.
For `D8G`, “normalised enrichment score” read 0.109.
For `V4Q`, “normalised enrichment score” read 0.0541.
`K6C` — result for “normalised enrichment score”: 0.151.

Block 3
Target: RING finger protein unkempt homolog, zinc fingers 1-6, GST-SBP tag (UNK, Homo sapiens, UniProt Q9C0B0, residues 30-357)
Sequence of UniProt Q9C0B0 (30-357, looked up): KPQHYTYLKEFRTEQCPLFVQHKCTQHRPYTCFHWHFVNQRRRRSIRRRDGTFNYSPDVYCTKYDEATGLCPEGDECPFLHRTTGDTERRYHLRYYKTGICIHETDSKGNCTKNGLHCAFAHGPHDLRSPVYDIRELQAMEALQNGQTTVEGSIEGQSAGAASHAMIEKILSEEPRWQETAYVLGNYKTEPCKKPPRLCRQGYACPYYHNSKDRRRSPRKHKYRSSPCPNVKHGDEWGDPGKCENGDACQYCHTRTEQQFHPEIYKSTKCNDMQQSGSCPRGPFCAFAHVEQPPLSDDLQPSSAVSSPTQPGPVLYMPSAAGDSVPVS
Method: RNA Bind-n-Seq
Form: RNA
Medium: in vitro
Concentration: not given
Notes: RNA with constant flanks, human and mouse sites, ends assumed
Reference: input RNA pool
Direction: higher = stronger binding
The bound/input enrichment of `GGGAGUUCUACAGUCCGACGAUCUUGAGACCUUGUGUACUAAGAGCAAGGAAGUAUAGCUAAGAUGUCUAGAUUAUUUAUAUGUAGUAUGGUGGGGAGUGGGGCUGCAAGGAAGGGGGCUGACAUUGUAAAUGAGAAAAUCAGCAACAGAGGAUUGAGCAUCA` is reported as 9.2 ratio.
`GGGAGUUCUACAGUCCGACGAUCGUAACCAUCUACCGGGAAGAAGGCAUCGUAGGAUUUUUUGCGGGUCUCAUUCCUCGCCUCCUAGGUGACAUCAUUUCUUUGUGGCUGUGUAACUCACUGGCCUAUCUCAUCAAUACCUAUCAACAGAGGAUUGAGCAUCA` gave a bound/input enrichment of 0.318 ratio.
`GGGAGUUCUACAGUCCGACGAUCUUCUUCACCCGGAACCAUCUGCCUGUACCUAACCUGGAUCCAGACACCUAUCGCUUACACGUAGUAGGAGCACCUGGGGGUCAGUCACUGUCUCUUUCCCUGGAUGACUUGCACAACUUUCAACAGAGGAUUGAGCAUCA` gave a bound/input enrichment of 0.147 ratio.
For `GGGAGUUCUACAGUCCGACGAUCGAAGUGUGGCAGGUGAUCAUAGGAGCCAGAGCUGAGAUGACUUCAAAACACCAAGAGUACUUGAAGCUGGAAACCACUUGGAUGACUGCAGUUGGUCUUUCAGAGAUGGCAGCAGAAGCUCAACAGAGGAUUGAGCAUCA`, the bound/input enrichment was 0.446 ratio.

Further values, each from its own experiment
With `PhoQ, residues 284 288 289 292 302 303 NLSRDF` the fold induction was 0.525 (PhoP, residues 12 14 15 18 19 LYHSL (Escherichia coli, UniProt P23836); Sort-seq, measured: YFP reporter; E. coli; PhoQ-PhoP variant library, together with: 10 µM Mg2+; reference: high Mg2+ state, higher = stronger signaling).

A few entries again (block 3):
`GGGAGUUCUACAGUCCGACGAUCUUCUUCACCCGGAACCAUCUGCCUGUACCUAACCUGGAUCCAGACACCUAUCGCUUACACGUAGUAGGAGCACCUGGGGGUCAGUCACUGUCUCUUUCCCUGGAUGACUUGCACAACUUUCAACAGAGGAUUGAGCAUCA` gave a bound/input enrichment of 0.147 ratio.
